Measurements collected from several papers.
± gives the spread as reported.
ESR1: Estrogen receptor (ESR1, Homo sapiens, UniProt P03372)
Sequence of UniProt P03372 (whole entry, looked up): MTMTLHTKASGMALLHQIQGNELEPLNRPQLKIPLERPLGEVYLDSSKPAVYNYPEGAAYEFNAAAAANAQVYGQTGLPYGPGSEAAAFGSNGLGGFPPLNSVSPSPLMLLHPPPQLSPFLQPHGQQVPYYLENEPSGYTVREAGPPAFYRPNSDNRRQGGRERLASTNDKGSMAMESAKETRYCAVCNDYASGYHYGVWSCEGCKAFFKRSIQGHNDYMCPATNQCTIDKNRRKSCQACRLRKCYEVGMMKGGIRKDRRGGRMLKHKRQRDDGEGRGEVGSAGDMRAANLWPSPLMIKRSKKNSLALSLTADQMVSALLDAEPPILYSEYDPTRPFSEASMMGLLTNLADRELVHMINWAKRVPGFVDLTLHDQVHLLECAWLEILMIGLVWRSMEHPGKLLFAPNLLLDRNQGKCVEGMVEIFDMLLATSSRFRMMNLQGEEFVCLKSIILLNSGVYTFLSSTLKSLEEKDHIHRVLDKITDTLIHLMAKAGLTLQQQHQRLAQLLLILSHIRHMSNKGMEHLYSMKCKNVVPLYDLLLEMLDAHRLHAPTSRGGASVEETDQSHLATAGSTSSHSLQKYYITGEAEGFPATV
DRD3: D(3) dopamine receptor (DRD3, Homo sapiens, UniProt P35462)
Sequence of UniProt P35462 (whole entry, looked up): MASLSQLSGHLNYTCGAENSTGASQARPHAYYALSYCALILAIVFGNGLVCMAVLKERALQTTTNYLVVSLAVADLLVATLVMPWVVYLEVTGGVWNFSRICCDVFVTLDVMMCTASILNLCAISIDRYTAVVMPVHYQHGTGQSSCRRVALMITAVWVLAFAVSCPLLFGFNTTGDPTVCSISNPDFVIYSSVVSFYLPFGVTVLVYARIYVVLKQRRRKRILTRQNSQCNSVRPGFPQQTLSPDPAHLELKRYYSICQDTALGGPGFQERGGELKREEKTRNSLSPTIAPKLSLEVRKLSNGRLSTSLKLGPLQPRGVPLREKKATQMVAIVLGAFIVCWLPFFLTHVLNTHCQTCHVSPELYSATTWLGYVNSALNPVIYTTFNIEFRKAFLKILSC
RORC: Nuclear receptor ROR-gamma (RORC, Homo sapiens, UniProt P51449)
Sequence of UniProt P51449 (whole entry, looked up): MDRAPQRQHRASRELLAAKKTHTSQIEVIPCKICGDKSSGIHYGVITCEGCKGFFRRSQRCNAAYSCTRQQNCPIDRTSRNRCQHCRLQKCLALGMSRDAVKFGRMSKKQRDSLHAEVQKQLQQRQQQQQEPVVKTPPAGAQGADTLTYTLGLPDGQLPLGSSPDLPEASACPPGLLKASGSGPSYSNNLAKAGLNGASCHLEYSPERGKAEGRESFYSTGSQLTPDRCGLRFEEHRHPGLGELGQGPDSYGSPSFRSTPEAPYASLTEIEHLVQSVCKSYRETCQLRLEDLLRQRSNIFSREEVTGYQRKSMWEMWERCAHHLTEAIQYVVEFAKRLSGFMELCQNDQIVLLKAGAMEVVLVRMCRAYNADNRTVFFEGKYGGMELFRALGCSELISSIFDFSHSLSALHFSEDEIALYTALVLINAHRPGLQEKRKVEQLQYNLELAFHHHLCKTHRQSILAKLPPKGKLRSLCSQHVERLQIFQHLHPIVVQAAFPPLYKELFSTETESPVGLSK
SLC10A1: Hepatic sodium/bile acid cotransporter (SLC10A1, Homo sapiens, UniProt Q14973)
Sequence of UniProt Q14973 (whole entry, looked up): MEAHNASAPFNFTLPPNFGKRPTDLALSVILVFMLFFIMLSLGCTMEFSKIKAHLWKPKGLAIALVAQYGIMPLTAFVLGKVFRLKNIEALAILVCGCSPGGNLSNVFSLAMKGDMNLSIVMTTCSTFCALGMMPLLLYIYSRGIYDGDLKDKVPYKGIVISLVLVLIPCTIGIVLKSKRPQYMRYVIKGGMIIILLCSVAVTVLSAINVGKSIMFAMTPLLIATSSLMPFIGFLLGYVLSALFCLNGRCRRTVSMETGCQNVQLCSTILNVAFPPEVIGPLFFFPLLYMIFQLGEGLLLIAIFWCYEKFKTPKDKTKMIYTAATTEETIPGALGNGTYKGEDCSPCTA
CDK2 with cyclin A: Cyclin-dependent kinase 2, with cyclin A (CDK2, Homo sapiens, UniProt P24941)
MBLAC2: MBLAC2 (Homo sapiens, UniProt Q68D91)
Sequence of UniProt Q68D91 (whole entry, looked up): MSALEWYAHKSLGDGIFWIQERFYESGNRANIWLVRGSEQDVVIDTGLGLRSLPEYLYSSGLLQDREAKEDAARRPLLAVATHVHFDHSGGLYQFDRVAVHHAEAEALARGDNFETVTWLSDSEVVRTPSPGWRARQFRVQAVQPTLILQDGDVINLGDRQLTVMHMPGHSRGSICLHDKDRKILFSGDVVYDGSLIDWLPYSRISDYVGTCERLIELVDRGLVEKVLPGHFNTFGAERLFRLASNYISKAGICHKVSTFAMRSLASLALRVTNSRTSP
CDK2: Cyclin-dependent kinase 2 (CDK2, Homo sapiens, UniProt P24941)
Sequence of UniProt P08909 (whole entry, looked up): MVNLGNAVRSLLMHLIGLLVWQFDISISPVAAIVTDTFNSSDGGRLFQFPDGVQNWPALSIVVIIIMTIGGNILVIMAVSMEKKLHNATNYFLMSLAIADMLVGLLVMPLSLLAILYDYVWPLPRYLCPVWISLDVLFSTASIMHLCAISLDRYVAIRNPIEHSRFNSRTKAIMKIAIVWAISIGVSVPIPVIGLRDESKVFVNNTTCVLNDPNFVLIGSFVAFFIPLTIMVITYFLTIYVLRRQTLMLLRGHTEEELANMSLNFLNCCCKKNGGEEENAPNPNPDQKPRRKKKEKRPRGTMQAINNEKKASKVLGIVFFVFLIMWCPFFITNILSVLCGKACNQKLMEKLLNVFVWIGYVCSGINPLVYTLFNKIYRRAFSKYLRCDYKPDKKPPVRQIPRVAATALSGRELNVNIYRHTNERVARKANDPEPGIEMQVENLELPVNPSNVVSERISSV
Sequence of UniProt P20309 (whole entry, looked up): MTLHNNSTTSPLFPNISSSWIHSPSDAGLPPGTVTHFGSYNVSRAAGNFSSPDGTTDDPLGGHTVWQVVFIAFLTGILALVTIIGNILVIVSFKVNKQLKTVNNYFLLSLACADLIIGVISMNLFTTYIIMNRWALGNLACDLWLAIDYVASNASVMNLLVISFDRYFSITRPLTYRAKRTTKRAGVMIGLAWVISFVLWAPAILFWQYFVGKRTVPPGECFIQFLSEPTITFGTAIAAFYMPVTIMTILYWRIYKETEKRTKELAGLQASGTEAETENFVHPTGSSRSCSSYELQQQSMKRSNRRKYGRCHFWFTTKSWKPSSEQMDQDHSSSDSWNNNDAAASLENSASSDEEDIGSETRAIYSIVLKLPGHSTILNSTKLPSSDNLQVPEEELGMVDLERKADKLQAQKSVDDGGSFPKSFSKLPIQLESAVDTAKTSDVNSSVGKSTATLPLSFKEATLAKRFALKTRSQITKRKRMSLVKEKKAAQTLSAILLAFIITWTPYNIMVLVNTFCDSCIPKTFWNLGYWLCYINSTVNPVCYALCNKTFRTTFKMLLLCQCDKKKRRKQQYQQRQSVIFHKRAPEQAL
Sequence of UniProt Q9UL54 (whole entry, looked up): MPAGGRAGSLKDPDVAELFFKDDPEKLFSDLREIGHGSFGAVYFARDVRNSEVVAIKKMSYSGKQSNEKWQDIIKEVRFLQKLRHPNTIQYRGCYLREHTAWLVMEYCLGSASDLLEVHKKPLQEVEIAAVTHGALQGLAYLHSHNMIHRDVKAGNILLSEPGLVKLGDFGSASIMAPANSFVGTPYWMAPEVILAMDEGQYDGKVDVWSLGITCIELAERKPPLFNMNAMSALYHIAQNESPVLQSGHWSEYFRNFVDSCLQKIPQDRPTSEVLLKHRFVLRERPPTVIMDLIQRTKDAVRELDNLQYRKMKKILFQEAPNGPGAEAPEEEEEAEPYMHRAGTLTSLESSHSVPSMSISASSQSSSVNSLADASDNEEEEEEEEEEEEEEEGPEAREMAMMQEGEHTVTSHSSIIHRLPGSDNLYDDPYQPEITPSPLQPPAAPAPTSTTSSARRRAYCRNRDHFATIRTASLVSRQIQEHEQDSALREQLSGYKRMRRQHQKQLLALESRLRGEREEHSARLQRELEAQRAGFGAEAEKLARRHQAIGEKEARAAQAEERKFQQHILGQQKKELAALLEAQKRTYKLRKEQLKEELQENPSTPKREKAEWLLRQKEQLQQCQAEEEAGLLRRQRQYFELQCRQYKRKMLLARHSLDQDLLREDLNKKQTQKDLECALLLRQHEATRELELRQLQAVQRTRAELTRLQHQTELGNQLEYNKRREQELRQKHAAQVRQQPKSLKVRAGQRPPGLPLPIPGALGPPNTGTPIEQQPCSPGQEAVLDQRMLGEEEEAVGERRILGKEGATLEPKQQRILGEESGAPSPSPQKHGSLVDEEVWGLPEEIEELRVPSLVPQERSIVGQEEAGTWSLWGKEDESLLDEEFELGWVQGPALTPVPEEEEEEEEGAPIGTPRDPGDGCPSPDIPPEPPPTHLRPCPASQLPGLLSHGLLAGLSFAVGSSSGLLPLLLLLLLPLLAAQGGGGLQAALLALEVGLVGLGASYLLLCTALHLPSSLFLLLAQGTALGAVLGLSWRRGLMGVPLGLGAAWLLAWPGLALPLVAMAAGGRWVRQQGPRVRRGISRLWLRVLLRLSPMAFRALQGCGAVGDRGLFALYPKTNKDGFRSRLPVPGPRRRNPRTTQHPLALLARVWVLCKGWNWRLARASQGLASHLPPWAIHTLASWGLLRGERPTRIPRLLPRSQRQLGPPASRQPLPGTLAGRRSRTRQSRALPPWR
Sequence of UniProt P00176 (whole entry, looked up): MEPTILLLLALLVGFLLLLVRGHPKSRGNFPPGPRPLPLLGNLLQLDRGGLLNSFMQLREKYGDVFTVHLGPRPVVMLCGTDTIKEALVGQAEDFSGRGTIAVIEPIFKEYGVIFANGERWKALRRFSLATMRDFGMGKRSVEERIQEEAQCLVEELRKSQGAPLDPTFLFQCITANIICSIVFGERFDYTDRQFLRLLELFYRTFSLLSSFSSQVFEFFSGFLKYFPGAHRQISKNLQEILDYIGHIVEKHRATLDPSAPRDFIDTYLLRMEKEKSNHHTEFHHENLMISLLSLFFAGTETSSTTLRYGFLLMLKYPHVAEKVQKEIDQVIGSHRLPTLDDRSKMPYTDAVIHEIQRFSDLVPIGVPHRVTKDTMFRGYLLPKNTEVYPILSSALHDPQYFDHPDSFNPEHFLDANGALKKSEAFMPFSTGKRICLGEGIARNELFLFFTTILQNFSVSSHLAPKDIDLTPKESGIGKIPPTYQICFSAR

With COc1cc(O)c(CC=C(C)C)c2c1C(=O)CC(c1ccc(O)cc1)O2 (centres unmarked) the EC50 was 2.08 µM (ESR1; array formation, agonist; ERα-GFP PRL-HeLa; 1 h).
Under “percent dose excreted”, CC(C)[C@H](NC(=O)[C@@H](NC(=O)CCCc1cn(CC(O)CN2CCN(CC(=O)O)CCN(CC(=O)O)CCN(CC(=O)O)CC2)nn1)[C@@H](C)O)C(=O)N[C@@H](CCCNC(=N)N)C(=O)N[C@H](C(=O)N[C@@H](CO)C(=O)N[C@@H](C)C(=O)N[C@@H](CC(=O)O)C(=O)O)[C@@H](C)O (some centres unmarked) is recorded as 92.5 ± 29% (ICP-MS, item: gadolinium; healthy men, urine; intravenous, 0.04 mmol/kg).
With Cc1[nH]c(C)c(S(=O)(=O)Nc2cc(Cl)ccc2C(F)(F)F)c1C(=O)N1CCC(F)(F)C1 the IC50 was over 100 µM (DRD3; β-arrestin recruitment, antagonist, PathHunter; together with: dopamine EC80).
CC1Cc2ccc(OCc3c(F)cccc3Cl)cc2N1S(=O)(=O)c1cccc(C(F)(F)F)c1 (centres unmarked) has an EC50 of 0.11 ± 0.02 µM (RORC; reporter gene, agonist, GAL4 luciferase reporter; together with: ursolic acid 2 µM).
With COC(=O)[C@H]1[C@H]2C[C@@H]3c4[nH]c5cc(OC)ccc5c4CCN3C[C@H]2C[C@@H](OC(=O)c2cc(OC)c(OC)c(OC)c2)[C@@H]1OC the Ki was 89.1 ± 65 µM (SLC10A1; taurocholate uptake, inhibitor; NTCP-expressing HEK293; together with: 10 µM taurocholate).
For COc1ccc(C(=O)CSc2nnc(-c3ccc(OC)c(OC)c3)n2-c2ccccc2)cc1, the Kd was over 100 µM (CDK2 with cyclin A).
Cc1[nH]c(C)c(S(=O)(=O)Nc2ccc(C(F)(F)F)c(Cl)c2)c1C(=O)N(C)Cc1ccccc1 gave an IC50 of over 100 µM (DRD3; Go activation, antagonist, BRET; together with: dopamine).
C/C=C1\NC(=O)[C@H]2CSSCC/C=C/[C@H](CC(=O)N[C@H](C(C)C)C(=O)N2)OC(=O)[C@H](C(C)C)NC1=O has a Kd of over 30.2 µM (MBLAC2; inhibitor, competition pulldown; SW620 and MV4-11 lysate; 1 h).
For CN(C)C(=N)N=C(N)N, the Ki was 255 ± 118 µM (SLC10A1; taurocholate uptake, inhibitor; NTCP-expressing HEK293; together with: 10 µM taurocholate).
COc1ccc(OCC(=O)Nc2cc(-c3nn4c(C)nnc4s3)ccc2C)cc1 has a Kd of over 100 µM (CDK2 with cyclin A).
For COc1ccc(-c2coc3cc(O)ccc3c2=O)cc1O, the EC50 was 0.946 µM (ESR1; array formation, agonist; ERα-GFP PRL-HeLa; 1 h).
The Kb of N#C[C@@]12C[C@@H]1[C@@H](n1cnc3c(NC4CCCC4)nc(I)nc31)[C@H](O)[C@@H]2O is reported as 0.148 µM (5-hydroxytryptamine receptor 2C (Rattus norvegicus, UniProt P08909); antagonist, Gq dissociation BRET; rat receptor).
For CCCC1O[C@@H]2C[C@H]3[C@@H]4CCC5=CC(=O)C=C[C@]5(C)[C@H]4[C@@H](O)C[C@]3(C)[C@]2(C(=O)CO)O1 (some centres unmarked), the Ki was 264 ± 94 µM (SLC10A1; taurocholate uptake, inhibitor; NTCP-expressing HEK293; together with: 10 µM taurocholate).
For O=c1cc(-c2ccccc2)oc2cc(O[C@@H]3O[C@H](CO[C@@H]4O[C@H](CO)[C@@H](O)[C@H](O)[C@H]4O)[C@@H](O)[C@H](O)[C@H]3O)c(O)c(O)c12, the EC50 was 1.86 µM (ESR1; array formation, agonist; ERα-GFP PRL-HeLa; 1 h).
Cn1cc2c(C(=O)O)ccc(NS(=O)(=O)c3ccc(OCC4CCC4)c(Cl)c3)c2n1 gave an EC50 of over 10 µM (Muscarinic acetylcholine receptor M3 (CHRM3, Homo sapiens, UniProt P20309); agonist).
Cc1ccc(NS(=O)(=O)c2cc(C(=O)Nc3ccccc3C(=O)N3CCOCC3)ccc2Cl)c(C)c1 gave a Kd of over 100 µM (CDK2; binding).
For O=S(=O)(c1cccc(C(F)(F)F)c1)N1CCc2ccc(OCc3c(Cl)cccc3C(F)(F)F)cc21, the EC50 was 0.09 ± 0.02 µM (RORC; reporter gene, agonist, GAL4 luciferase reporter; together with: ursolic acid 2 µM).
For COc1cccc(NC(=O)CSc2nnnn2C)c1, the Kd was over 100 µM (CDK2 with cyclin A).
For Cc1[nH]cc(C(=O)N(C)C)c1S(=O)(=O)Nc1ccc(C(F)(F)F)c(Cl)c1, the IC50 was over 100 µM (DRD3; β-arrestin recruitment, antagonist, PathHunter; together with: dopamine EC80).
With O=C(Cn1ccc([N+](=O)[O-])n1)N1CCCc2ccccc21 the Kd was over 100 µM (CDK2 with cyclin A).
With CN(C)Cc1c(C(=O)NCCOc2ccc(C(=O)NO)cc2)oc2ccccc12 the Kd was 0.0867 µM (MBLAC2; inhibitor, competition pulldown; SW620 and MV4-11 lysate; 1 h).
For N=C(N)c1ccc(OCCCCCOc2ccc(C(=N)N)cc2)cc1, the Ki was 615 ± 129 µM (SLC10A1; taurocholate uptake, inhibitor; NTCP-expressing HEK293; together with: 10 µM taurocholate).
CC(C)C[C@H](NC(=O)C[C@H](O)[C@H](CC(C)C)NC(=O)[C@H](Cc1c[nH]cn1)NC(=O)CNC(=O)[C@@H](NC(=O)[C@H](C)NC(=O)[C@H](Cc1c[nH]c2ccccc12)NC(=O)[C@H](CCC(N)=O)NC(=O)[C@@H](Cc1ccccc1)NC(=O)COCCOCCNC(=O)CCC(C(=O)O)N1CCN(CC(=O)O)CCN(CC(=O)O)CCN(CC(=O)O)CC1)C(C)C)C(N)=O (some centres unmarked) [lutetium-177 labelled] has a tissue uptake of 0.07 ± 0.07 %ID/g (female BALB/c nu/nu mice, bone; intravenous, 50 pmol, 24 h).
COc1c(O)cc2occ(-c3ccc(O)cc3)c(=O)c2c1O has an EC50 of 2.46 µM (ESR1; array formation, agonist; ERα-GFP PRL-HeLa; 1 h).
The Kd of COc1ccc(NC(=O)CCSc2nnc3scc(-c4ccc(C)cc4)n23)cc1 is reported as over 100 µM (CDK2; binding).
Cc1[nH]c(C)c(S(=O)(=O)Nc2ccc(C(F)(F)F)c(Cl)c2)c1C(=O)N1CCNCC1 has an IC50 of over 100 µM (DRD3; Go activation, antagonist, BRET; together with: dopamine).
CN(C)CCCN1c2ccccc2Sc2ccc(Cl)cc21 has a Ki of 767 ± 268 µM (SLC10A1; taurocholate uptake, inhibitor; NTCP-expressing HEK293; together with: 10 µM taurocholate).
The EC50 of O=S(=O)(c1cccc(-c2ccccc2)c1)N1CCc2ccc(OCc3c(F)cccc3Cl)cc21 is reported as 7.8 ± 2.1 µM (RORC; reporter gene, agonist, GAL4 luciferase reporter; together with: ursolic acid 2 µM).
C[C@H]1C[C@@H]2[C@H]([C@@H](O)C[C@@]3(C)[C@H]2CC[C@]3(O)C(=O)CO)[C@@]2(C)C=CC(=O)C=C12 has a Ki of 255 ± 53 µM (SLC10A1; taurocholate uptake, inhibitor; NTCP-expressing HEK293; together with: 10 µM taurocholate).
With CCOc1ccc2nc(SCC(=O)Nc3c(C)n(C)n(-c4ccccc4)c3=O)sc2c1 the Kd was over 100 µM (CDK2 with cyclin A).
C[C@]12CC[C@@H]3c4ccc(O)cc4C[C@@H](CCCCCCCCC[S+]([O-])CCCC(F)(F)C(F)(F)F)[C@H]3[C@@H]1CC[C@@H]2O (some centres unmarked) has an IC50 of over 10 µM (Progesterone receptor (PGR, Homo sapiens, UniProt P06401); PR receptor activity, agonist, cell-based).
O=C(COP(=O)(O)O)[C@@H](O)[C@H](O)[C@H](O)COP(=O)(O)O gave an AC50 of 0.0434 ± 0.0217 µM (Pyruvate kinase PKM (PKM, Homo sapiens, UniProt P14618); enzyme activity, activator; together with: 0.2 mM PEP and 2 mM ADP).
The Ki of CCOc1nc2cccc(C(=O)O)c2n1Cc1ccc(-c2ccccc2-c2nnn[nH]2)cc1 is reported as 145 ± 44 µM (SLC10A1; taurocholate uptake, inhibitor; NTCP-expressing HEK293; together with: 10 µM taurocholate).
O=S(=O)(c1ccnc(C(F)(F)F)c1)N1CCc2ccc(OCc3c(F)cccc3Cl)cc21 has an EC50 of 1.6 ± 0.41 µM (RORC; reporter gene, agonist, GAL4 luciferase reporter; together with: ursolic acid 2 µM).
C#Cc1ccc(-c2cc(=O)c3ccccc3o2)cc1 has a Ki of over 25 µM (Cytochrome P450 2B1 (Cyp2b1, Rattus norvegicus, UniProt P00176); fluorimetric PROD; recombinant supersomes; 6 min, pH 7.6, together with: pentoxyresorufin).
With Cn1c(Cc2ccccc2)nnc1Sc1ccc([N+](=O)[O-])cc1C(=O)N1CCOCC1 the Kd was over 100 µM (CDK2; binding).
COc1ccc(-c2coc3cc(O)cc(O)c3c2=O)cc1 gave an EC50 of 0.588 µM (ESR1; array formation, agonist; ERα-GFP PRL-HeLa; 1 h).
For Cc1[nH]c(C)c(S(=O)(=O)Nc2ccc([S+](C)[O-])c(Cl)c2)c1C(=O)N1CCC(F)(F)C1 (centres unmarked), the IC50 was over 100 µM (DRD3; β-arrestin recruitment, antagonist, PathHunter; together with: dopamine EC80).
O=c1cc(-c2ccc(O)c(O)c2)oc2cc(O)cc(O)c12 gave an EC50 of 1.66 µM (ESR1; array formation, agonist; ERα-GFP PRL-HeLa; 1 h).
The IC50 of Cc1[nH]c(C)c(S(=O)(=O)Nc2ccc(C(F)(F)F)c(Cl)c2)c1C(=O)N1CCC(C)(C)C1 is reported as over 100 µM (DRD3; Go activation, antagonist, BRET; together with: dopamine).
O=c1c(O[C@@H]2O[C@H](CO)[C@@H](O)[C@H](O)[C@H]2O)c(-c2ccc(O)c(O)c2)oc2cc(O[C@@H]3O[C@H](CO[C@@H]4O[C@H](CO)[C@@H](O)[C@H](O)[C@H]4O)[C@@H](O)[C@H](O)[C@H]3O)cc(O)c12 gave an EC50 of 5.98 µM (ESR1; array formation, agonist; ERα-GFP PRL-HeLa; 1 h).
COc1cc(Cl)ccc1COc1ccc2c(c1)N(S(=O)(=O)c1cccc(C(F)(F)F)c1)CC2 gave an EC50 of 1.5 ± 0.29 µM (RORC; reporter gene, agonist, GAL4 luciferase reporter; together with: ursolic acid 2 µM).
For Cc1[nH]c(C)c(S(N)(=O)=Nc2ccc(C(F)(F)F)c(Cl)c2)c1C(=O)N1CCC(F)(F)C1 (centres unmarked), the IC50 was over 100 µM (DRD3; Go activation, antagonist, BRET; together with: dopamine).
For NC(=O)c1ncn([C@@H]2O[C@H](CO)[C@@H](O)[C@H]2O)n1, the Ki was 193 ± 223 µM (SLC10A1; taurocholate uptake, inhibitor; NTCP-expressing HEK293; together with: 10 µM taurocholate).
O=C(O)CC[C@H](NC(=O)N[C@@H](CCCCNC(=O)[C@H](Cc1ccc2ccccc2c1)NC(=O)CCCCCNC(=O)CN1CCN(CC(=O)O)CCN(CC(=O)O)CCN(CC(=O)O)CC1)C(=O)O)C(=O)O [gallium-68 labelled] gave a tissue uptake of 4.59 ± 2.06 %ID/g (gamma counting; mouse, 22Rv1 xenograft, heart; intravenous, 3.7 MBq, 2 h).
Cc1[nH]c2ccccc2c1CCNCc1ccc(/C=C/C(=O)NO)cc1 gave a Kd of 1.38 µM (MBLAC2; inhibitor, competition pulldown; SW620 and MV4-11 lysate; 1 h).
Cc1[nH]c(C)c(S(=O)(=O)Nc2ccc(C(F)(F)F)c(Cl)c2)c1C(=O)N1CCC(F)(F)C1 gave a Kb of 0.49 µM (DRD3; β-arrestin recruitment, allosteric modulator, operational model of allostery; together with: dopamine).
CC[C@@H]1[C@H](F)C(=O)N[C@@H]1COc1nccc2cc(C(N)=O)c(OC)cc12 has an IC50 of over 5 µM (Serine/threonine-protein kinase TAO2 (TAOK2, Homo sapiens, UniProt Q9UL54); ATP-site binding, ActivX KiNativ profiling; THP-1 cell lysate; Lys2 TAO2 probe site).
CCCCC/C=C/C(=O)CCc1ccc(O)c(OC)c1 gave an EC50 of 1.7 µM (ESR1; array formation, agonist; ERα-GFP PRL-HeLa; 1 h).
Cn1cc(-c2ccc(-c3cncc(Cl)c3N3CCC4(CCNC4=O)CC3)cc2)cn1 — result for “fold change in expression”: 2.53 (COLO 205; microarray, item: KITLG; concentration not given, 6 h, gene set MGF; reference: untreated cells).
